Results pooled from the literature.
Lines come from different studies, so protocols differ. ± marks the error that the study gave.

COCC(C)N1CCn2cc(C(=O)NCc3ccc(F)cc3F)c(=O)c(O)c2C1=O (stereo not shown) has a CC50 of greater than 250 µM (HOS; cell growth or viability; 48 h).
For COC(=O)C(CCSC)NC(=O)C1OC(OC2C(OC3CCC4(C)C(CCC5(C)C4C(=O)C=C4C6CC(C)(C(=O)O)CCC6(C)CCC45C)C3(C)C)OC(C(=O)NC(CCSC)C(=O)OC)C(O)C2O)C(O)C(O)C1O (stereo not shown), the CC50 was greater than 8000 µM (Raji; cell growth or viability, MTT; 72 h).
With COc1ccc(S(=O)(=O)O)cc1N=Nc1c(S(=O)(=O)O)cc2cc(NCc3nc(CNc4cc(C)c(N=Nc5cc(S(=O)(=O)O)cc6cc(S(=O)(=O)O)cc(O)c56)cc4OC)nc(Nc4ccccc4)n3)ccc2c1O the CC50 was 450 ± 33 µM (CEMx174 5.25M7; 3 days).
With O=c1ccn([C@@H]2O[C@H](CO)[C@@H](O)[C@H]2F)c(=O)[nH]1 the CC50 was greater than 250 µM (COLO 205; sulforhodamine B; 11 days, galactose medium).
COC(=O)CCC(NC(=O)C1OC(OC2C(OC3CCC4(C)C(CCC5(C)C4C(=O)C=C4C6CC(C)(C(=O)NC(CCC(=O)OC)C(=O)OC)CCC6(C)CCC45C)C3(C)C)OC(C(=O)NC(CCC(=O)OC)C(=O)OC)C(O)C2O)C(O)C(O)C1O)C(=O)OC (stereo not shown) has a CC50 of greater than 8000 µM (Raji; cell growth or viability, MTT; 72 h).
The CC50 of CCOC(=O)C(NC(=O)CN1C(=O)/C(=C/c2ccc3c(c2)OCO3)SC1=S)C(C)C (stereo not shown) is reported as greater than 100 µM (PMA-differentiated THP-1, Leishmania-infected; resazurin; 72 h).
OC[C@H]1O[C@@H](n2cnc3c(O)ncnc32)[C@H](F)[C@@H]1O gave a CC50 of 114 µM (COLO 205; sulforhodamine B; 11 days, glucose medium).
With CCCC[n+]1cccc(C2NC(C(=O)OCC)C34c5c6c7c8c9c%10c(c%11c%12c3c3c5c5c%13c6c6c7c7c9c9c%14c%10c%10c%11c%11c%12c%12c3c3c5c5c%13c%13c6c6c7c9c7c9c%14c%10c%10c%11c%11c%12c3c3c5c5c%13c6c7c6c9c%10c%11c3c56)C824)c1 (stereo not shown) the CC50 was greater than 25 µM (Ramos; cell growth or viability; 24 h).
CN(C)S(=O)(=O)c1cc(O)c(O)c2c1CN(Cc1ccc(F)c(Cl)c1)C2=O gave a CC50 of 6.6 ± 0.4 µM (HOS; ATPlite; 48 h).
For CC1(C(=O)O)CCC2(C)CCC3(C)C(=CC(=O)C4C5(C)CCC(OC6OC(C(=O)NC(CCCCNC(=O)OCc7ccccc7)C(=O)O)C(O)C(O)C6OC6OC(C(=O)NC(CCCCNC(=O)OCc7ccccc7)C(=O)O)C(O)C(O)C6O)C(C)(C)C5CCC43C)C2C1 (stereo not shown), the CC50 was greater than 8000 µM (Raji; cell growth or viability, MTT; 72 h).
With OC[C@H]1[C@@H](O)[C@@H](O)CN1Cc1ccc(Br)cc1 the CC50 was greater than 200 µM (MRC-5; MTS; 72 h).
With C[N+](C)(C)c1ccc(C2NC(c3ccc([N+](C)(C)C)cc3)C34c5c6c7c8c9c%10c(c%11c%12c3c3c5c5c%13c6c6c7c7c9c9c%14c%10c%10c%11c%11c%12c%12c3c3c5c5c%13c%13c6c6c7c9c7c9c%14c%10c%10c%11c%11c%12c3c3c5c5c%13c6c7c6c9c%10c%11c3c56)C824)cc1 (stereo not shown) the CC50 was 18.8 µM (Ramos; cell growth or viability; 24 h).
Nc1ccn([C@@H]2O[C@H](CO)[C@@H](O)[C@H]2F)c(=O)n1 has a CC50 of 47 µM (COLO 205; sulforhodamine B; 11 days, galactose medium).

For quick reference, copied from above:
With O=c1ccn([C@@H]2O[C@H](CO)[C@@H](O)[C@H]2F)c(=O)[nH]1 the CC50 was greater than 250 µM (COLO 205; sulforhodamine B; 11 days, galactose medium).
For CC1(C(=O)O)CCC2(C)CCC3(C)C(=CC(=O)C4C5(C)CCC(OC6OC(C(=O)NC(CCCCNC(=O)OCc7ccccc7)C(=O)O)C(O)C(O)C6OC6OC(C(=O)NC(CCCCNC(=O)OCc7ccccc7)C(=O)O)C(O)C(O)C6O)C(C)(C)C5CCC43C)C2C1 (stereo not shown), the CC50 was greater than 8000 µM (Raji; cell growth or viability, MTT; 72 h).
